Experimental data gathered from unrelated publications.
Converted amounts (≈) assume the structure as drawn.

Under “log2 fold change”, Cc1ncsc1-c1ccc(C(C)NC(=O)C2CC(O)CN2C(=O)C(NC(=O)CCCCCCCCCCN2CCCC(Nc3ncc(Cl)c(Nc4ccccc4S(=O)(=O)C(C)C)n3)C2)C(C)(C)C)cc1 (stereo not shown) is recorded as -1.01 (22Rv1; RNA-seq, item: POLM mRNA; concentration not given; baseline: DMSO).
The MIC50 of C=C(NC(=O)c1csc(-c2nc3c(cc2O)-c2nc(cs2)C(=O)NC(C(C)O)C(=O)NC(=C(C)OC)c2nc(cs2)C(=O)NC2c4nc(cs4)C(=O)NC(COC(=O)c4c5c6c(cccc6n4O)COC(=O)C(OC4CC(C)(O)C(N(C)C)C(C)O4)C2OC5)c2nc-3cs2)n1)C(N)=O (stereo not shown) is reported as 7.8 ng/mL (≈ 5.43 nM) (Staphylococcus epidermidis; microbial growth; clinical isolate).
CN1CCCNC(=O)c2cccc(c2)C(=O)NCCCN(C)CCCNc2cccc3c2C(=O)c2cccc(c2C3=O)NCCC1 — result for “log2 fold change”: -0.824 (SAS; RNA-Seq, item: LUC7L2 mRNA; 1 µM, 6 h; baseline: untreated cells).
C=CC(=O)Nc1cccc(Cn2ncc3cnc(Nc4cnn(CCOC)c4)nc32)c1: “percent of control” 44% (CSF1R human; binding, KINOMEscan; 100 nM; lower = stronger binding).
C=CC(=O)N1[C@@H](c2ccc3c(c2)OCO3)c2[nH]c3ccccc3c2C[C@H]1C(=O)N1CCN(C)CC1 has a relative co-enrichment of 93% (human cyclin E1 wild type-3xFLAG:CDK2; co-IP with TMT proteomics, item: NPM1; concentration not given, P06748; baseline: wild type DMSO).
Under “log2 fold change”, Cn1ncc2cc(-c3cncc(Cl)c3N3CCC4(CCNC4=O)CC3)ccc21 is recorded as 2.6 (LS174T; gene expression, microarray, item: ABCA1 mRNA; concentration not given, 24 h; baseline: untreated cells).
The remaining binding of Nc1ncc(-c2cc(-c3cnn(CC(F)(F)F)c3)ncc2F)nc1C(=O)NC1CNCC(F)C1 (stereo not shown) is reported as 51% (ROCK2; KINOMEscan; 1 µM; baseline: DMSO control).
COC1CN([C@H]2CC[C@H]([C@@]3(C)Oc4c(Cl)cc(C(=O)NCc5c(SC)cc(C)[nH]c5=O)c(C)c4O3)CC2)C1 — result for “log2 fold change”: 0.108 (RNA-seq, item: BCL9 mouse homolog; mouse, HT-1376 xenograft, whole blood; dose not given; baseline: vehicle).
The IC50 of CNS(=O)(=O)Nc1nccc(Cc2c(C)c3ccc(Oc4ncccc4F)cc3oc2=O)c1F is reported as > 1 µM (NCI-H2196; cell viability; 7 days).
The fold regulation of CCN(CC)CC(=O)Nc1cccc(-n2cc(-c3ccc4ccc(-c5cn(-c6cccc(NC(=O)CN(CC)CC)c6)nn5)cc4c3)nn2)c1 is reported as 1.07 (RCC4; PCR angiogenesis array, item: SPHK1; 5 x IC50, 2 h, normoxia; baseline: untreated).

Some of these lines once more:
Under “log2 fold change”, Cc1ncsc1-c1ccc(C(C)NC(=O)C2CC(O)CN2C(=O)C(NC(=O)CCCCCCCCCCN2CCCC(Nc3ncc(Cl)c(Nc4ccccc4S(=O)(=O)C(C)C)n3)C2)C(C)(C)C)cc1 (stereo not shown) is recorded as -1.01 (22Rv1; RNA-seq, item: POLM mRNA; concentration not given; baseline: DMSO).
